Assay results from different studies.
“And” joins repeats or separate records; there may be more than shown.
B1: palladin, human; sequence looked up; chain MSGTSSHESFYDSLSDMQEESKNTDFFPGLSAFLSQEEINKSLDLARRAIADSETEDFDSEKEISQIFSTSPASLCEHPSHKETKLGEHASRRPQDNRSTPVQPLAEKQTKSISSPVSKRKPAMSPLLTRPSYIRSLRKAEKRGAKTPSTNVKPKTPHQRKGGPQSQLCDKAANLIEELTSIFKAAKPRNRSPNGESSSPDSGYLSPKNQPSALLSASASQSPMEDQGEMEREVKSPGARHCYQDNQDLAVPHNRKSHPQPHSALHFPAAPRFIQKLRSQEVAEGSRVYLECRVTGNPTPRVRWFCEGKELHNTPDIQIHCEGGDLHTLIIAEAFEDDTGRYTCLATNPSGSDTTSAEVFIEGASSTDSDSESLAFKSRAGAMPQAQKKTTSVSLTIGSSSPKTGVTTAVIQPLSVPVQQVHSPTSYLCRPDGTTTAYFPPVFTKELQNTAVAEGQVVVLECRVRGAPPLQVQWFRQGSEIQDSPDFRILQKKPRSTAEPEEICTLVIAETFPEDAGIFTCSARNDYGSATSTAQLVVTSANTENCSYESMGESNNDHFQHFPPPPPILETSSLELASKKPSEIQQVNNPELGLSRAALQMQFNAAERETNGVHPSRGVNGLINGKANSNKSLPTPAVLLSPTKEPPPLLAKPKLDPLKLQQLQNQIRLEQEAGARQPPPAPRSAPPSPPFPPPPAFPELAACTPPASPEPMSALASRSAPAMQSSGSFNYARPKQFIAAQNLGPASGHGTPASSPSSSSLPSPMSPTPRQFGRAPVPPFAQPFGAEPEAPWGSSSPSPPPPPPPVFSPTAAFPVPDVFPLPPPPPPLPSPGQASHCSSPATRFGHSQTPAAFLSALLPSQPPPAAVNALGLPKGVTPAGFPKKASRTARIASDEEIQGTKDAVIQDLERKLRFKEDLLNNGQPRLTYEERMARRLLGADSATVFNIQEPEEETANQEYKVSSCEQRLISEIEYRLERSPVDESGDEVQYGDVPVENGMAPFFEMKLKHYKIFEGMPVTFTCRVAGNPKPKIYWFKDGKQISPKSDHYTIQRDLDGTCSLHTTASTLDDDGNYTIMAANPQGRISCTGRLMVQAVNQRGRSPRSPSGHPHVRRPRSRSRDSGDENEPIQERFFRPHFLQAPGDLTVQEGKLCRMDCKVSGLPTPDLSWQLDGKPVRPDSAHKMLVRENGVHSLIIEPVTSRDAGIYTCIATNRAGQNSFSLELVVAAKEAHKPPVFIEKLQNTGVADGYPVRLECRVLGVPPPQIFWKKENESLTHSTDRVSMHQDNHGYICLLIQGATKEDAGWYTVSAKNEAGIVSCTARLDVYTQWHQQSQSTKPKKVRPSASRYAALSDQGLDIKAAFQPEANPSHLTLNTALVESEDL
B2: calponin-3, human; sequence looked up; chain MTHFNKGPSYGLSAEVKNKIASKYDHQAEEDLRNWIEEVTGMSIGPNFQLGLKDGIILCELINKLQPGSVKKVNESSLNWPQLENIGNFIKAIQAYGMKPHDIFEANDLFENGNMTQVQTTLVALAGLAKTKGFHTTIDIGVKYAEKQTRRFDEGKLKAGQSVIGLQMGTNKCASQAGMTAYGTRRHLYDPKMQTDKPFDQTTISLQMGTNKGASQAGMLAPGTRRDIYDQKLTLQPVDNSTISLQMGTNKVASQKGMSVYGLGRQVYDPKYCAAPTEPVIHNGSQGTGTNGSEISDSDYQAEYPDEYHGEYQDDYPRDYQYSDQGIDY

For `gentamicin`, the MIC was less than 0.5 µg/mL (Klebsiella pneumoniae; broth microdilution; ATCC 43816 ΔacrAB, cation-adjusted MHB).
`colistin` gave an MIC of 16 µg/mL (Klebsiella pneumoniae; clinical isolate RKI 544/13).
For `tigecycline`, the MIC was 0.63 µM (Klebsiella pneumoniae; broth microdilution; ATCC 700603; without peptide).
With `colistin` the MIC was 18.2 µM (Klebsiella pneumoniae; 9908, RPMI 1640 10% FBS; 18 to 24 h, 37 °C).
`B1 (palladin, human)` — result for “log2 fold change”: -1.13 (CYB5R4 knockout human cells; PP4 interaction, 3xFLAG-PP4C IP-MS; concentration not given; relative to: CYB5R4 KO over parental).
With `ramoplanin` the MIC was 640 µM (Klebsiella pneumoniae; broth microdilution; ATCC 700603; without peptide).
`B2 (calponin-3, human)` — result for “log2 fold change”: 2.36 (CYB5R4 knockout human cells; PP4 interaction, 3xFLAG-PP4C IP-MS; concentration not given; relative to: CYB5R4 KO over parental).
`colistin` has an MIC of 0.25 µg/mL (Klebsiella pneumoniae; broth microdilution; ATCC 13883; susceptible reference strain).
Under “MIC fold shift”, `Polymyxin B` is recorded as 0.5 (Klebsiella pneumoniae; NCTC 13438; relative to: 5% CO2 over ambient air).
`Polymyxin B` has an NADH level of 4.44 pmol/µL and 4.81 pmol/µL and 4.8 pmol/µL (Klebsiella pneumoniae; ATCC 43863; concentration not given).
